Measurements collected from several papers.
ACTA1: ACTA1, pyrene label (Oryctolagus cuniculus, UniProt P68135)
T1: Psmc3ip/Mnd1 R82A/K83A/R84A (Mus musculus); chain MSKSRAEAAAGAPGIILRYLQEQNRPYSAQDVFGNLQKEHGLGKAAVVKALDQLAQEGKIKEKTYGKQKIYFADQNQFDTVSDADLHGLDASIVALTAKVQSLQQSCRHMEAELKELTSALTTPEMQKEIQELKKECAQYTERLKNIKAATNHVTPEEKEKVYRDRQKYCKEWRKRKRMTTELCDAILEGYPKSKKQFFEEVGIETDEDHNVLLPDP; chain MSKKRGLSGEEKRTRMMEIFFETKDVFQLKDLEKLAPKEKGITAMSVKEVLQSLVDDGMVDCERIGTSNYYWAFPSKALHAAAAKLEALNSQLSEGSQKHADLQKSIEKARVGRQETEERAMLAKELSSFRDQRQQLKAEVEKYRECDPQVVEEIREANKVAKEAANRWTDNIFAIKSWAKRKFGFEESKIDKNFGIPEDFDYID
B1: rof 1-84 (Escherichia coli, UniProt P0AFW8); chain MNDTYQPINCDDYDNLELACQHHLMLTLELKDGEKLQAKASDLVSRKNVEYLVVEAAGETRELRLDKITSFSHPEIGTVVVSES
B2: FBN1 179-489 (Homo sapiens, UniProt P35555); chain RDYRTGPCFTVISNQMCQGQLSGIVCTKTLCCATVGRAWGHPCEMCPAQPHPCRRGFIPNIRTGACQDVDECQAIPGLCQGGNCINTVGSFECKCPAGHKLNEVSQKCEDIDECSTIPGICEGGECTNTVSSYFCKCPPGFYTSPDGTRCIDVRPGYCYTALTNGRCSNQLPQSITKMQCCCDAGRCWSPGVTVAPEMCPIRATEDFNKLCSVPMVIPGRPEYPPPPLGPIPPVLPVPPGFPPGPQIPVPRPPVEYLYPSREPPRVLPVNVTDYCQLVRYLCQNGRCIPTPGSYRCECNKGFQLDLRGECI
B3: kaiA (Synechococcus elongatus, UniProt Q79PF6); chain MLSQIAICIWVESTAILQDCQRALSADRYQLQVCESGEMLLEYAQTHRDQIDCLILVAANPSFRAVVQQLCFEGVVVPAIVVGDRDSEDPDEPAKEQLYHSAELHLGIHQLEQLPYQVDAALAEFLRLAPVETMADHIMLMGANHDPELSSQQRDLAQRLQERLGYLGVYYKRDPDRFLRNLPAYESQKLHQAMQTSYREIVLSYFSPNSNLNQSIDNFVNMAFFADVPVTKVVEIHMELMDEFAKKLRVEGRSEDILLDYRLTLIDVIAHLCEMYRRSIPRET
B4: colicin N T and R domains (Escherichia coli); chain MGSNGADNAHNNAFGGGKNPGIGNTSGAGSNGSASSNRGNSNGWSWSNKPHKNDGFHSDGSYHITFHGDNNSKPKPGGNSGNRGNNGDGASAKVGEITITPDNSKPGRYISSNPEYSLLAKLIDAESIKGTEVYTFHTRKGQYVKVTVPDSNIDKMRVDYVNWKGPKYNNKLVKRFVSQFLL
B5: Fmnl3 555-954 R570A (Mus musculus, UniProt Q6ZPF4); chain GLSAIRIKKPIKTKFALPVFNWTALKPNQINGTVFSELDDEKILEDLDLDRFEELFKTKAQGPALDLICSKNKTAQKAASKVTLLEANRAKNLAITLRKAGRSAEEICRAIHTFDLQTLPVDFVECLMRFLPTEAEVKLLRQYERERQPLEELAAEDRFMLLFSKVERLTQRMAGMAFLGNFQDNLQMLTPQLNAIIAASASVKSSQKLKQMLEIILALGNYMNSSKRGAVYGFKLQSLDLLLDTKSTDRKMTLLHFIALTVKEKYPELANFWQELHFVEKAAAVSLENVLLDVKELGRGMELIRRECSIHDNSVLRNFLSTNEGKLDKLQRDAKTAEEAYNAVVRYFGESPKTTPPSVFFPVFVRFIRSYKEAEQENEARKKQEEVMREKQLAQEAKKL
B6: Gp1.2 residues 2-end 2-85 (bacteriophage T7, UniProt P03780); sequence looked up; chain GRLYSGNLAAFKAATNKLFQLDLAVIYDDWYDAYTRKDCIRLRIEDRSGNLIDTSTFYHHDEDVLFNMCTDWLNHMYDQLKDWK
B7: Fmnl3 555-954 I649A (Mus musculus, UniProt Q6ZPF4); chain GLSAIRIKKPIKTKFRLPVFNWTALKPNQINGTVFSELDDEKILEDLDLDRFEELFKTKAQGPALDLICSKNKTAQKAASKVTLLEANRAKNLAATLRKAGRSAEEICRAIHTFDLQTLPVDFVECLMRFLPTEAEVKLLRQYERERQPLEELAAEDRFMLLFSKVERLTQRMAGMAFLGNFQDNLQMLTPQLNAIIAASASVKSSQKLKQMLEIILALGNYMNSSKRGAVYGFKLQSLDLLLDTKSTDRKMTLLHFIALTVKEKYPELANFWQELHFVEKAAAVSLENVLLDVKELGRGMELIRRECSIHDNSVLRNFLSTNEGKLDKLQRDAKTAEEAYNAVVRYFGESPKTTPPSVFFPVFVRFIRSYKEAEQENEARKKQEEVMREKQLAQEAKKL
B8: HNRNPH1 192-280 (Homo sapiens, UniProt P31943); chain RTHYDPPRKLMAMQRPGPYDRPGAGRGYNSIGRGAGFERMRRGAYGGGYGGYDDYNGYNDGYGFGSDRFGRDLNYCFSGMSDHRYGDGG
B9: DMC1 (Homo sapiens, UniProt Q14565); chain MKEDQVVAEEPGFQDEEESLFQDIDLLQKHGINVADIKKLKSVGICTIKGIQMTTRRALCNVKGLSEAKVDKIKEAANKLIEPGFLTAFEYSEKRKMVFHITTGSQEFDKLLGGGIESMAITEAFGEFRTGKTQLSHTLCVTAQLPGAGGYPGGKIIFIDTENTFRPDRLRDIADRFNVDHDAVLDNVLYARAYTSEHQMELLDYVAAKFHEEAGIFKLLIIDSIMALFRVDFSGRGELAERQQKLAQMLSRLQKISEEYNVAVFVTNQMTADPGATMTFQADPKKPIGGHILAHASTTRISLRKGRGELRIAKIYDSPEMPENEATFAITAGGIGDAKE
B10: hns (Escherichia coli, UniProt P0ACF8); chain MSEALKILNNIRTLRAQARECTLETLEEMLEKLEVVVNERREEESAAAAEVEERTRKLQQYREMLIADGIDPNELLNSLAAVKSGTKAKRAQRPAKYSYVDENGETKTWTGQGRTPAVIKKAMDEQGKSLDDFLIKQ
B11: Fmnl3 555-954 R782A (Mus musculus, UniProt Q6ZPF4); chain GLSAIRIKKPIKTKFRLPVFNWTALKPNQINGTVFSELDDEKILEDLDLDRFEELFKTKAQGPALDLICSKNKTAQKAASKVTLLEANRAKNLAITLRKAGRSAEEICRAIHTFDLQTLPVDFVECLMRFLPTEAEVKLLRQYERERQPLEELAAEDRFMLLFSKVERLTQRMAGMAFLGNFQDNLQMLTPQLNAIIAASASVKSSQKLKQMLEIILALGNYMNSSKAGAVYGFKLQSLDLLLDTKSTDRKMTLLHFIALTVKEKYPELANFWQELHFVEKAAAVSLENVLLDVKELGRGMELIRRECSIHDNSVLRNFLSTNEGKLDKLQRDAKTAEEAYNAVVRYFGESPKTTPPSVFFPVFVRFIRSYKEAEQENEARKKQEEVMREKQLAQEAKKL
B12: TRAP 26-496 (Plasmodium falciparum, UniProt P16893); sequence looked up; chain RDVQNNIVDEIKYSEEVCNDQVDLYLLMDCSGSIRRHNWVNHAVPLAMKLIQQLNLNDNAIHLYVNVFSNNAKEIIRLHSDASKNKEKALIIIRSLLSTNLPYGRTNLTDALLQVRKHLNDRINRENANQLVVILTDGIPDSIQDSLKESRKLSDRGVKIAVFGIGQGINVAFNRFLVGCHPSDGKCNLYADSAWENVKNVIGPFMKAVCVEVEKTASCGVWDEWSPCSVTCGKGTRSRKREILHEGCTSEIQEQCEEERCPPKWEPLDVPDEPEDDQPRPRGDNSSVQKPEENIIDNNPQEPSPNPEEGKDENPNGFDLDENPENPPNPDIPEQKPNIPEDSEKEVPSDVPKNPEDDREENFDIPKKPENKHDNQNNLPNDKSDRNIPYSPLPPKVLDNERKQSDPQSQDNNGNRHVPNSEDRETRPHGRNNENRSYNRKYNDTPKHPEREEHEKPDNNKKKGESDNKYK

Molecule | tested on | test | test system | conditions | how to read | quantity | result
B1 (rof 1-84) | rho 1-419 (Escherichia coli, UniProt P0AG30) | rho termination, inhibitor |  |  | lower = more inhibition | terminated transcripts | 16%
YES1 (Homo sapiens, UniProt P07947) | CD46 mature (Homo sapiens) | co-IP | infected cells | 5 min | relative to: uninfected cells, higher = more c-Yes co-precipitated | relative co-precipitation | 4 fold
melittin |  | isothermal titration calorimetry | POPC/POPG LUVs 50:50% | 100 µM, pH 7.0, 25 °C |  | partitioning enthalpy | -4.7 kcal/mol
N-formyl-Met-Leu-Phe, N-formyl | FPR1 (Homo sapiens, UniProt P21462) | aequorin luminescence, agonist | CHO-K1 |  |  | pEC50 | 9.39 pEC50
sevA (Dictyostelium discoideum, UniProt P10733) | actin G-actin, pyrene label (Oryctolagus cuniculus, UniProt P68135) | actin polymerization, inhibitor |  | 50 nM, 14 h, capping, with: EGTA | relative to: control, higher = more F-actin | F-actin at steady state | 97.5%
B2 (FBN1 179-489) | FBLN5 42-448 (Homo sapiens, UniProt Q9UBX5) | ELISA |  |  |  | binding | binds
B3 (kaiA) | kaiC 1-519 E352D (Synechococcus elongatus, UniProt Q79PF4) | priming phosphorylation, SDS-PAGE |  | 0.2 mg/mL, 30 °C, with: KaiA 0.04 mg/mL | higher = faster | rate constant k1 | 0.15 h⁻¹
B4 (colicin N T and R domains) | ompF mature, trimer (Escherichia coli, UniProt P02931) | ITC |  | 25 °C |  | molecule per partner | 2.76
B5 (Fmnl3 555-954 R570A) | ACTA1 | inhibition of filament elongation, inhibitor, pyrene-actin assay |  |  |  | IC50 | 0.9 nM
B6 (Gp1.2 residues 2-end 2-85) | dgt 1-505 (Escherichia coli, UniProt P15723) | dGTP hydrolysis inhibition, inhibitor |  | from KM increase, with: dGTP |  | IC50 | 70 nM
B7 (Fmnl3 555-954 I649A) | ACTA1 | elongation termination |  | formin 100 nM, with: capping protein 20 nM |  | capping protein protection time | 150 s
Dctn1 (Mus musculus, UniProt O08788) | Dync1h1 F580Y (Mus musculus, UniProt Q9JHU4) | co-IP | brain extract | 4 °C | relative to: wild type, lower = less binding | p150/DHC ratio | 1.2 fold
B8 (HNRNPH1 192-280) | FUS 2-214 (Homo sapiens, UniProt P35637) | trapping in hydrogel, hydrogel binding |  | pH 7.5, 4 °C, NaCl 200 mM |  | binding | binds
rpoS (Escherichia coli, UniProt P13445) | rpoB/rpoC core RNA polymerase (Escherichia coli) | pausing efficiency |  | σ added in trans, adhE TEC |  | apparent Kd | 490 nM
B9 (DMC1) | T1, Psmc3ip/Mnd1 R82A/K83A/R84A (Mus musculus) | pull-down |  |  |  | binding | binds
Ank2 | L1cam (Rattus norvegicus, UniProt Q05695) | single particle tracking | ND-7 |  | relative to: untreated, higher = more stationary | stationary behaviour | 28.6%
PTGER2 Y142A (Homo sapiens) | GNAS/GNB1/GNG2 heterotrimer (Homo sapiens) | GloSensor | COS-7 | with: PGE2 | relative to: wild type EP2, higher = greater reduction | cAMP accumulation | 50 fold
RmS-6, glycosylated (Rhipicephalus microplus) | PLG plasmin (Homo sapiens) | chromogenic substrate hydrolysis, inhibitor |  | 1 µM |  | protease inhibition | 24.1%
B10 (hns) | Tn5 transposase transpososome with end DNA E54K/M56A/L372P (Tn5 transposon, UniProt Q46731) | EMSA |  | with: heparin | relative to: without H-NS, higher = more transpososome | fold increase in transpososome formation | 17 fold
B11 (Fmnl3 555-954 R782A) | ACTA1 | inhibition of filament elongation, inhibitor, pyrene-actin assay |  |  |  | IC50 | 2.5 nM
RmS-17, glycosylated (Rhipicephalus microplus) | PLG plasmin (Homo sapiens) | chromogenic substrate hydrolysis, inhibitor |  | 1 µM |  | protease inhibition | 58.4%
YAEGTFISDYSIAMDKIRQQDFVNWLLAQKGKKNDWKHNLTQ (Gip mature (Rattus norvegicus, UniProt Q06145)) | Gipr (Mus musculus, UniProt Q0P543) | radioligand binding |  |  |  | Ki | 0.27 nM
B12 (TRAP 26-496) | ITGAV/ITGB3 ectodomain heterodimer 31-992 (Homo sapiens) | SPR |  |  |  | half-life | > 3 min

Excerpt of the above:
Molecule | tested on | test | test system | conditions | how to read | quantity | result
B3 (kaiA) | kaiC 1-519 E352D (Synechococcus elongatus, UniProt Q79PF4) | priming phosphorylation, SDS-PAGE |  | 0.2 mg/mL, 30 °C, with: KaiA 0.04 mg/mL | higher = faster | rate constant k1 | 0.15 h⁻¹
B4 (colicin N T and R domains) | ompF mature, trimer (Escherichia coli, UniProt P02931) | ITC |  | 25 °C |  | molecule per partner | 2.76
rpoS (Escherichia coli, UniProt P13445) | rpoB/rpoC core RNA polymerase (Escherichia coli) | pausing efficiency |  | σ added in trans, adhE TEC |  | apparent Kd | 490 nM
